# Experimental data of several laboratories.
# Each line is one published result; not all experiments were run side by side. “And” joins repeats or separate records; there may be more than shown.
# Target: Ephrin type-A receptor 6 (EPHA6, Homo sapiens, UniProt Q9UF33)
Structure (SMILES),assay,test system,conditions,how to read,measurement,result
C=CC(=O)N1CCc2ccc(-n3c(=O)ccc4cnc5ccc(-c6cnn(C)c6)cc5c43)cc21,KINOMEscan,,1 µM,relative to: DMSO control,remaining binding,100%
Nc1ncc2c(n1)-c1c([nH]c3ccc(C4=CCOCC4)cc13)CCC2,"binding, competition with immobilised ligand",,1 µM,,remaining binding,97%
COc1c(Cl)cccc1Nc1c(-c2ccncc2C#C[C@@]2(C)CCCN2C(=O)/C=C/CN(C)C)[nH]c2c1C(=O)NCC2,"cell-free assay, competition with immobilised ligand",,3 µM,,remaining binding,48%
Cc1cnc2nc1Nc1cccc(c1)COC/C=C/COCc1cc(ccc1OCCN1CCOCC1)N2,binding,,0.1 µM,,remaining binding,95%
CN1CCN(Cc2ccc(-c3ccc(CO[C@H]4CCC[C@@H]4NC(=O)c4cc(-c5cnn(C)c5)cnc4N)cc3)cc2)CC1,"enzyme activity, inhibitor",,0.1 µM,,inhibition,-6%
NC(=O)[C@@H](O)C[C@H]1CCc2sc3ncnc(O[C@H]4CC[C@H](N5CCOCC5)CC4)c3c21,"enzyme activity, inhibitor",,10 µM,,inhibition,9%
CCn1cc(C(=O)O)c(=O)c2c(N)c(F)c(NC3CCCCC3)cc21,kinase activity,,"0.1 µM, added: ATP at Km",,inhibition,7.7%
C=CC(=O)N1CCCC(n2c(=O)c3ncccc3n(Cc3ccc(Oc4ccccc4)cc3)c2=O)C1 (stereo not shown),"cell-free assay, competition with immobilised ligand",,1 µM,,remaining binding,100%
CC(C)=CC1OC(C)(C)C2C=C3C(=O)C(Cl)=CC(O)C3C3C(O)C4OC4C(=O)C132 (stereo not shown),"cell-free assay, competition with immobilised ligand",,10 µM,,remaining binding,95%
COc1cc(Nc2nccc(-c3cnn4nc(OC)ccc34)n2)cc(C(F)(F)F)c1,"binding, competition with immobilised ligand",,1 µM,,remaining binding,98%
Cc1ccc(-c2c(/C=C(\C#N)C(=O)NC(C)C)n(CCCO)c3ncnc(N)c23)cc1,"cell-free assay, competition with immobilised ligand",,1 µM,,remaining binding,49%
C[C@H]1CN(C(=O)c2cn(-c3ccnc(N)n3)c3cc(C#CC4(O)CCCCC4)ccc23)CCN1,"cell-free assay, TR-FRET",,1 µM,,inhibition,-1%
CNC1C[S+]2CC[S+]3CC[S+](C1)[Ru-4]321([N]=C=S)[n]2c3ccc(OC)cc3c3c4c(c5cc(F)c[n+]1c5c32)C(=O)NC4=O (stereo not shown),KinomeScan,,0.1 µM,relative to: untreated,remaining binding,94%
Nc1ncc(-c2cc(-c3cnn(CC(F)(F)F)c3)ncc2F)nc1C(=O)NC1CNCC(F)C1 (stereo not shown),enzyme activity,,1 µM,relative to: DMSO control,remaining activity,81.3%
C=CC(=O)N1Cc2nc(-c3cc(-c4cc(Cl)cnc4Cl)c(F)cc3F)n(-c3ccncn3)c2C1,cell-free assay,,1 µM,,inhibition,9%
CCN1CCN(Cc2ccc(C(=O)Nc3ccc(C)c(NCc4cnc5[nH]ccc5c4OC)c3)cc2C(F)(F)F)CC1,"binding, competition with immobilised ligand",,1 µM,,remaining binding,36%
CNC(=O)C1CCN(c2cc(C)c(F)cc2NC(=O)c2ccc(-c3cc(O)ccc3C)c(C)c2)CC1,"binding, competition with immobilised ligand",,1 µM,,remaining binding,16%
N[C@H]1CC[C@H](Nc2nccc(-c3cccnc3Oc3ccc(NC(=O)NC4CC4)c4ccccc34)n2)CC1,kinobead competition pulldown,HEK293/HCT116 lysate mixture,"10 µM, 1 h, 4 °C",lower = stronger competition,log2 LFQ intensity,20.3 and 17.8 and 20.2 and 19.8
NC(=O)C[C@H]1CCc2sc3ncnc(O[C@H]4CC[C@H](N5CCOCC5)CC4)c3c21,"enzyme activity, inhibitor",,10 µM,,inhibition,6%

# Repeated from above:
Structure (SMILES),assay,test system,conditions,how to read,measurement,result
CNC1C[S+]2CC[S+]3CC[S+](C1)[Ru-4]321([N]=C=S)[n]2c3ccc(OC)cc3c3c4c(c5cc(F)c[n+]1c5c32)C(=O)NC4=O (stereo not shown),KinomeScan,,0.1 µM,relative to: untreated,remaining binding,94%
